Measurements pooled from the literature.
Compare with care: the assays were run in different laboratories. Values joined by “and” are separate records of one study, mostly repeats; a detail may differ. ± marks the error that the study gave. In brackets after ≈: the same amount, converted by molar mass.

`C#CC[C@@H](N)C(=O)N[C@H](CO)C(=O)N[C@@H](C(=O)N[C@H](CO)C(=O)N[C@H](CCC(=O)O)C(=O)N[C@@H](C(=O)N[C@H](CCC(N)=O)C(=O)N[C@H](CC(C)C)C(=O)N[C@H](CCSC)C(=O)N[C@H](Cc1c[nH]cn1)C(=O)N[C@H](CC(N)=O)C(=O)N[C@H](CC(C)C)C(=O)NCC(=O)N[C@H](CCCCN)C(=O)N[C@H](Cc1c[nH]cn1)C(=O)N[C@H](CC(C)C)C(=O)NCC(=O)N[C@H](CO)C(=O)N[C@H](Cc1c[nH]c2ccccc12)C(=O)N[C@H](CCC(=O)O)C(=O)N[C@H](CCCNC(=N)N)C(=O)N[C@@H](C(=O)N[C@H](Cc1ccc(O)cc1)C(=O)N[C@H](Cc1ccccc1)C(=O)N[C@H](CC(C)C)C(=O)N[C@H](CCCNC(=N)N)C(=O)N[C@H](Cc1ccccc1)C(=O)N[C@H](CCCCN)C(=O)N[C@H](CC(C)C)C(=O)N[C@H](CCC(N)=O)C(=O)N[C@H](CC(C)C)C(=O)N[C@@H](C(N)=O)C(C)C)C(C)C)[C@H](C)CC)C(C)C` has an IC50 of 140 µM (hemagglutinin influenza A/California/07/2009 H1N1).
For `N=C(N)c1ccc(OCCC(CCOc2ccc(C(=N)N)cc2)c2ccccc2)cc1` (stereo not shown), “MIC in combination” read 12.5 µg/mL (Escherichia coli; BW25113; concentration not given, lowest-FICI combination, added: erythromycin).
`COc1c(CCC[P+](c2ccccc2)(c2ccccc2)c2ccccc2)cc2c(c1OC)OCO2.[I-]` gave a TGI of -4.89 log M (SNB-19; SRB).
`CN1CCN(C2(CNC3CCN(c4cccc(-c5cc6cc(F)ccc6[nH]5)c4)CC3)CCC2)CC1` gave a CC50 of 6.3 µM (PC-3).
`CC[C@H](C)[C@H](NC(=O)[C@H](C)NC(=O)[C@H](CCCCN)NC(=O)[C@H](CC(C)C)NC(=O)[C@H](C)NC(=O)[C@@H](NC(=O)[C@H](Cc1c[nH]cn1)NC(=O)[C@H](CC(C)C)NC(=O)[C@@H](NC(=O)[C@@H](NC(=O)[C@H](CCCCN)NC(=O)[C@H](C)NC(=O)[C@H](C)NC(=O)[C@H](CO)NC(=O)[C@H](CCCCN)NC(=O)[C@H](Cc1ccccc1)NC(=O)[C@@H](NC(=O)[C@H](CCCCN)NC(=O)[C@H](CC(C)C)NC(=O)[C@H](Cc1ccccc1)NC(=O)[C@H](CO)NC(=O)[C@H](CCCCN)NC(=O)[C@H](Cc1c[nH]c2ccccc12)NC(=O)[C@H](CCCCN)NC(C)=O)[C@@H](C)O)[C@@H](C)O)C(C)C)[C@@H](C)O)C(=O)N[C@@H](CO)C(=O)N[C@@H](CO)C(N)=O` gave an MIC90 of 16 µg/mL (≈ 5.45 µM) (Klebsiella pneumoniae; ATCC 1705).
For `CCCCC1(CCCC)CN(c2ccccc2)c2cc(SC)c(OCC(=O)N[C@@H](C(=O)NCC(=O)O)c3ccccc3)cc2S(=O)(=O)C1`, the serum LDL-C was 97.5 mg/dL (measured: LDL cholesterol; human, serum; 2.5 mg once daily, day 11).
For `CC[C@H](C)[C@@H]1NC(=O)[C@@H]2CCCN2C(=O)[C@H](CC(C)C)NC(=O)[C@H](CC(C)C)NC(=O)CNC(=O)[C@@H](NC(=O)[C@@H](NC(=O)[C@H](CC(=O)O)NC(=O)CNC(=O)[C@@H](NC(=O)[C@H](C)NC(=O)CNC(=O)[C@H](CCCCN)NC(=O)[C@H](CC(C)C)NC(=O)[C@H](CC(C)C)NC(=O)[C@H](CCCCN)NC(=O)CNC(=O)[C@@H](NC(=O)[C@@H](N)CC(C)C)C(C)C)C(C)C)C(C)C)CSSC[C@@H](C(=O)O)NC1=O`, “log2 fold change” read -0.654 (RNA-seq, measured: Cacna1i; mouse, traumatic brain injury model, frontal cortex and hippocampus; dose not given; relative to: TBI alone).
With `O=C(Cc1cccc(I)c1)N[C@H]1CCOC1=O` the activation was 32% (ExpR1 (Pectobacterium carotovorum); cellulase activity, agonist; Pectobacterium carotovorum, single-ExpR1 strain; 200 µM, 4 h; relative to: OHHL).
The fold enrichment of `Nc1ncnc2c1ncn2[C@@H]1O[C@@H]2COP(=O)(O)O[C@H]3[C@@H](O)[C@H](n4cnc5c(=O)[nH]cnc54)O[C@@H]3COP(=O)(O)O[C@H]2[C@H]1O` is reported as 16.4 (Zika virus; downregulated Reactome pathway, RNA sequencing, measured: Smooth Muscle Contraction (R-HSA-445355); HFF-1; relative to: ZIKV-infected untreated).
`COc1cc(CCC[P+](c2ccccc2)(c2ccccc2)c2ccccc2)c(OC)c2c1OCO2.[I-]` gave a GI50 of -5.93 log M (SNB-19; SRB).
`O=C1CCP(=S)(c2ccccc2)CC1` has an IL-6 level of 0.1 ± 0.03 pg/mL (PC-3; ELISA; IC50, 72 h).
For `C[C@H]1O[C@@H](O[C@H]2CC[C@@]3(C)[C@@H](CC[C@]4(C)[C@@H]3C=C[C@]35OC[C@@]6(CCC(C)(C)C[C@H]63)[C@@H](O)C[C@]54C)[C@]2(C)CO)[C@H](O)[C@@H](O[C@@H]2O[C@H](CO)[C@@H](O)[C@H](O)[C@H]2O)[C@H]1O`, “liver to body weight ratio” read 4.6% and 3.78% and 4.49% and 4.95% and 4.28% and 4.37% (mouse, ethanol-fed, AAV8-TBG-Null; dose not given, high dose).
For `O=C(Cc1ccccc1I)N[C@H]1CCOC1=O`, the activation was 11% (ExpR1 (Pectobacterium carotovorum); cellulase activity, agonist; Pectobacterium carotovorum, single-ExpR1 strain; 200 µM, 4 h; relative to: OHHL).
For `CS(=O)(=O)CCCn1c(Cn2c(=O)n(CC(F)(F)F)c3ccncc32)cc2cc(Cl)ccc21`, “LS mean viral load change” read -3.96 log10 copies/mL (respiratory syncytial virus; RT-qPCR; hospitalized infants 1-24 months, nasal swab; oral, 2, 1.5 or 1 mg/kg daily, day 14, low dose by age cohort; relative to: baseline).
`N.N.[Cl][Pt][Cl]` has an IC50 of 8.08 µM (A2780; cell viability, MTT; 48 h).
For `CC[C@@H](NC(=O)CNC(=O)[C@@H](CC(C)C)NC(=O)CNC(=O)[C@H](N)CCC(N)=O)C(=O)N[C@H](CC(=O)O)C(=O)N[C@H](CCC(=O)O)C(=O)N[C@H](CCSC)C(=O)N[C@H](CC(C)C)C(=O)N[C@H](CCC(N)=O)C(=O)NCC(=O)N[C@H](Cc1ccccc1)C(=O)N[C@H](C)C(=O)N[C@@H](C(=O)N[C@H](C)C(=O)N[C@@H](C(=O)N[C@H](CCCCN)C(=O)N[C@H](CCSC)C(=O)NCC(=O)N[C@H](C)C(=O)N[C@H](Cc1ccc(O)cc1)C(=O)N[C@H](CCCCN)C(=O)N[C@H](C)C(=O)N[C@H](CC(=O)O)C(=O)O)C(C)C)C(C)C`, the IC50 was 58 µM (hemagglutinin influenza A/California/07/2009 H1N1).
The MIC90 of `CCCCc1c([N+](=O)[O-])oc2ccc3ccccc3c12` is reported as 4 µg/mL (≈ 14.9 µM) (Mycobacterium bovis BCG; 1173 P2).
For `COc1ccc(-n2nc(C(C)=O)s/c2=N\N=C(/C)c2ccc(NC(C)=O)cc2)cc1`, the mRNA level was 0.159 fold change (MCF7; RT-PCR, measured: Bcl-2 mRNA; 0.04 µM; relative to: untreated control).
For `O=C1c2c(O)c(=O)ccn2N([C@@H]2c3ccccc3SCc3c2ccc(F)c3F)[C@@H]2COCCN12`, “lung virus titre” read 3.68 log10 TCID50/mL (influenza A virus; A/WSN/33 (H1N1), BALB/c mouse, lung; subcutaneous, 0.125 mg/kg every 6 h, 24 h).
`CC(C)n1ncc2c(C(=O)NCC3(C)CNC3)cc(C3CC3)nc21` has a plaque area of 0% (Enterovirus D68; viral replication; RD, US/MO/14-18947; 3 µM; relative to: untreated).
For `O=C(Cc1cccc(Cl)c1)N[C@H]1CCOC1=O`, the activation was 49% (ExpR1 (Pectobacterium carotovorum); cellulase activity, agonist; Pectobacterium carotovorum, single-ExpR1 strain; 200 µM, 4 h; relative to: OHHL).
With `COCCC1=C(C(=O)OC)C(c2ccc(Cl)cc2)C2=C(CC(c3cc(OC)c(OC)c(OC)c3)CC2=O)N1` (single isomer, unassigned) the inhibition was > 75% and 77.6% (Plasmodium berghei; parasitaemia; KBG-173, mouse; oral, 50 mg/kg, day 6 post-infection, PEG400 vehicle, Thompson test; relative to: vehicle).
